Assay results pooled from the literature.
A part holds a random share of what one study measured.

Set 1
Target: Sal-like protein 4, full length isoform A (SALL4, Homo sapiens, UniProt Q9UJQ4, residues 1-1053)
UniProt Q9UJQ4, sequence (whole entry, looked up): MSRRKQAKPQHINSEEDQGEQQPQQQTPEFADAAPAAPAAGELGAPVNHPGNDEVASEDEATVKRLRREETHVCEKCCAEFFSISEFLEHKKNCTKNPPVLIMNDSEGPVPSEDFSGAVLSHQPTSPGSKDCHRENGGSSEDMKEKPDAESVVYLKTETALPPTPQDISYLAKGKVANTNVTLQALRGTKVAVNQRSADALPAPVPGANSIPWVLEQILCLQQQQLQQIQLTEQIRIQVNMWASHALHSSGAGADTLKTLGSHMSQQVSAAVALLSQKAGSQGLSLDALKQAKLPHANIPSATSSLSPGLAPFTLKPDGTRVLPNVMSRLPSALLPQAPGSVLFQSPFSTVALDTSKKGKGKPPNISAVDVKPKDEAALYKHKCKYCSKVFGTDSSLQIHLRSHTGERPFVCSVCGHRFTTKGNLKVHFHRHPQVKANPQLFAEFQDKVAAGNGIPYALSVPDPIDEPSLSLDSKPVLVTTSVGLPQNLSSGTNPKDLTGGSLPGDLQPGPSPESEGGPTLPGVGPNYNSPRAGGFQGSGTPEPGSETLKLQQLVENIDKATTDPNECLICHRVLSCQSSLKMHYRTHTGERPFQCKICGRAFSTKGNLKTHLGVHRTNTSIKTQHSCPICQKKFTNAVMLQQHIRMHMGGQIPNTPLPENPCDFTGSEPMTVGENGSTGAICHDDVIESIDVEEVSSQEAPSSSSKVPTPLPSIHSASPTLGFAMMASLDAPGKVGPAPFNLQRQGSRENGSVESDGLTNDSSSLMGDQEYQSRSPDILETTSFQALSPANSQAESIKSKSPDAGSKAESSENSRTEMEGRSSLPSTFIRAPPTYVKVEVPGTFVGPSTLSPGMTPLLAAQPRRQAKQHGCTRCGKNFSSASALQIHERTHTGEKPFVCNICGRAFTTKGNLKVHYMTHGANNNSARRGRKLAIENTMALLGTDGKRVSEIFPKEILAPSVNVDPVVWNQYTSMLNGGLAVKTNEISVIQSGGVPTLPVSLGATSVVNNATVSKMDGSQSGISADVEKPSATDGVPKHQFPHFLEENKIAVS
Technique: universal PBM
Molecule type: double-stranded DNA, one strand shown
Sample: in vitro
Concentration: 600 nM
Notes: 8-mer, flanks averaged, mean of replicates
Direction: higher = stronger binding
Strand	E-score
GGTGAACA	0.00238
GTAAAATA	0.288
GACACGGC	-0.209
CTGCGCAC	-0.145
AATGCCGG	-0.0667

Set 2
Target: Prothrombin, mature alpha-thrombin (F2, Homo sapiens, UniProt P00734)
Technique: aptamer microarray, sandwich
Molecule type: DNA with 2'F-ANA
Sample: in vitro
Concentration: 200 nM
Notes: whole 15-mer aptamer, many near background
With: Cy3 exosite-II aptamer, 400 nM
Direction: higher = stronger binding
Strand: GGTTGGTGTGGTTGG
Modification	mean fluorescence intensity [a.u.]
2'F-ANA at 1 2 3 7 8 12	637
2'F-ANA at 1 4 8 9 11 12 13 14	63.6
2'F-ANA at 1 4 5 6 7 8 9 12 14	45.8
2'F-ANA at 2 5 6 9 10 13 14	45
2'F-ANA at 7 10 11 12 14	121

Further values, each from its own experiment
Substance	target	test	test system	conditions	how to read	quantity	result
GCCTAGCACTCATAGTTTCTTTTCTTACTGTGCTAGGTCTTGATTCGCTTGACGCTGCTG	Interferon regulatory factor 5, full length, phosphomimetic (IRF5, Homo sapiens, UniProt Q13568-2, residues 1-514, S451D/S453D/S456D/S462D)	protein-binding microarray	double-stranded DNA, one strand shown, in vitro	940 nM top, 60-bp whole probe, with: salmon DNA 0.4 mg/ml	baseline: random background probes, higher = stronger binding	fitted relative affinity	3.25 z-score
PhoQ, residues 284 288 289 292 302 303 TTSMTC	PhoP, residues 12 14 15 18 19 TPWLV (Escherichia coli, UniProt P23836)	Sort-seq, item: YFP reporter	E. coli	PhoQ-PhoP variant library, with: 10 µM Mg2+	baseline: high Mg2+ state, higher = stronger signaling	fold induction	12.3
